Assay results pooled from the literature.
A part holds a random share of what one study measured. “And” joins repeats or separate records; there may be more than shown. ± gives the spread as reported.
Sequence of UniProt P10721 (whole entry, unmodified, looked up): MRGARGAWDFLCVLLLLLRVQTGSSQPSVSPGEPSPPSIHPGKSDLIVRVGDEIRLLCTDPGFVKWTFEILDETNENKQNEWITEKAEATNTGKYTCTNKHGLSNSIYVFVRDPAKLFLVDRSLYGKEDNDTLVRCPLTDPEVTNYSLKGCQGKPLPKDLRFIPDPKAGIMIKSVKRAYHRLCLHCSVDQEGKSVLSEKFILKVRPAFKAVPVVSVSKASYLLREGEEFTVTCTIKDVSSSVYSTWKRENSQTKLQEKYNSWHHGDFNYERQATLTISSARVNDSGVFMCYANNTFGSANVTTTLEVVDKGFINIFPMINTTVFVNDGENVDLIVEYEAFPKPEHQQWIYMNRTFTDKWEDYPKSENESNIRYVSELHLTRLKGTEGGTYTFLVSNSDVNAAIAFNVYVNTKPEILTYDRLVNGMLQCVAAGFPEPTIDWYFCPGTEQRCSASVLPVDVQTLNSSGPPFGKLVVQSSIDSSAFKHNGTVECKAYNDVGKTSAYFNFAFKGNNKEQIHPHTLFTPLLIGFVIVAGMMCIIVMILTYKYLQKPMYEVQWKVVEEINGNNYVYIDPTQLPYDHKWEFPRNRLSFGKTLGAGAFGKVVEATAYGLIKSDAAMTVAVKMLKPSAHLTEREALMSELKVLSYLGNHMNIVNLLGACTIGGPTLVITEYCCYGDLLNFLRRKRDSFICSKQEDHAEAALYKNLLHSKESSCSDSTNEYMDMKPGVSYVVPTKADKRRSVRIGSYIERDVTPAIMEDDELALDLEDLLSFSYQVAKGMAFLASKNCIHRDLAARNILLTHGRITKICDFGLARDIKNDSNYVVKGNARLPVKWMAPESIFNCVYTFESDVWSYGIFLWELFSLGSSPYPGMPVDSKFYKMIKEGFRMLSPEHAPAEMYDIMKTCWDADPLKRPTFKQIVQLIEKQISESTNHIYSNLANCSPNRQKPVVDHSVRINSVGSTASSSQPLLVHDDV
Sequence of UniProt O08590 (whole entry, looked up): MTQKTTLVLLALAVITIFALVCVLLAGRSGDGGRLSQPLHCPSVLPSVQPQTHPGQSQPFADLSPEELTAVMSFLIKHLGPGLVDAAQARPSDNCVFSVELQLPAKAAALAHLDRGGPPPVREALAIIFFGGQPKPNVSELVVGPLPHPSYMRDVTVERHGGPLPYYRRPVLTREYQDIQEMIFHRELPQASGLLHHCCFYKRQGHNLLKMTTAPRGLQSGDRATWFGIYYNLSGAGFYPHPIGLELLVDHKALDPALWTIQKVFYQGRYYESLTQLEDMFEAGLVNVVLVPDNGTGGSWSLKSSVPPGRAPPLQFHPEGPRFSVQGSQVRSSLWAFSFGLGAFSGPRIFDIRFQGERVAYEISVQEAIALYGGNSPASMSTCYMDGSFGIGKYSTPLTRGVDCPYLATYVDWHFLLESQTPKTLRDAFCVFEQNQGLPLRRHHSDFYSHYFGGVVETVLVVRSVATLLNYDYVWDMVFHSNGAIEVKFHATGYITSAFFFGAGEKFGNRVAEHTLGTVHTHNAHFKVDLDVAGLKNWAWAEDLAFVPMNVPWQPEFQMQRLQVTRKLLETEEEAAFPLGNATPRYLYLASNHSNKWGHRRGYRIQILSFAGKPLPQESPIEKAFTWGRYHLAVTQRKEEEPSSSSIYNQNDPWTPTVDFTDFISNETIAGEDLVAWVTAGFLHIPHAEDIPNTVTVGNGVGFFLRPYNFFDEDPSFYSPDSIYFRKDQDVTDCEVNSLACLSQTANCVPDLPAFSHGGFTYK

Series 1
Organism: Arabidopsis thaliana
Strain: Col-0
Concentration: 25 µg/mL
Notes: seed germination
Compound | root length [cm]
CC(C)=CCN1C(=O)C(O)(C(=O)O)Oc2cc(F)ccc21 (stereo not drawn) | 1.07
CN1C(=O)C(O)(C(=O)O)Oc2cc(F)ccc21 (stereo not drawn) | 0.838
O=C(O)C1(O)Oc2cc(Br)ccc2N(Cc2ccccc2)C1=O (stereo not drawn) | 0.761

Series 2
Target: Sodium-dependent neutral amino acid transporter B(0)AT1 (SLC6A19, Homo sapiens, UniProt Q695T7)
Sequence of UniProt Q695T7 (whole entry, looked up): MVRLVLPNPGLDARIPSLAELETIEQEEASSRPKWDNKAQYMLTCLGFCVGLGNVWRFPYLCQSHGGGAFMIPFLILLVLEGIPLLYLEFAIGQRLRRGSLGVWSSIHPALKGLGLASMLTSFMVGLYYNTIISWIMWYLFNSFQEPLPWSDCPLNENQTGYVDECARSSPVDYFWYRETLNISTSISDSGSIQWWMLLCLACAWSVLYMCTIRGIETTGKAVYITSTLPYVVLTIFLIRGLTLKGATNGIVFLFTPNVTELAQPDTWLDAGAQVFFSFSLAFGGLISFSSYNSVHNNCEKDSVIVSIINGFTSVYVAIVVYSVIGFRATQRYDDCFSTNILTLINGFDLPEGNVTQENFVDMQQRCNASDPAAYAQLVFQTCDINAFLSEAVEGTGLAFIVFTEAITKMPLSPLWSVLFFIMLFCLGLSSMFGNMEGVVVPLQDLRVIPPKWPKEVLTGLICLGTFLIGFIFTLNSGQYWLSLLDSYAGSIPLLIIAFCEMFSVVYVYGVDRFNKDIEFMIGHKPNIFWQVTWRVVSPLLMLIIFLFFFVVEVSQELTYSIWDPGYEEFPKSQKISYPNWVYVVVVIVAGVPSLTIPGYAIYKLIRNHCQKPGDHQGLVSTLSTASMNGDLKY
Mode: inhibitor
Method: FLIPR membrane potential
Cells: CHO-BC
With: 1.5 mM L-leucine
Compound | IC50 [nM]
CCCNC(=O)CNc1ccc(Br)c(C)c1 | 40 ± 3
Cc1cc(NCC(=O)NC(C)C)cc(C)c1Br | 360 ± 20
Cc1cc(NCC(=O)NC(C)C)cc(C)c1Cl | 300 ± 30
CCCNC(=O)COc1cc(C)c(Cl)c(C)c1 | 3400 ± 1100
CCNC(=O)CNc1ccc(I)c(C)c1 | 33 ± 5
Cc1cc(OCC(=O)NC(C)C)ccc1Br | 440 ± 60
CCNC(=O)COc1ccc(I)c(C)c1 | 46 ± 6

Series 3
SMILES: CCN1/C(=C/C=C2\CCCC(/C=C/C3=[N+](CC)c4ccccc4C3(C)C)=C2NCCCCCCCCN2CCC(Nc3nc4ccccc4n3Cc3ccc(F)cc3)CC2)C(C)(C)c2ccccc21
Cell line: U-87 MG
Concentration: concentration not given
Reference: DMSO
item | log2 fold change
NATD1 mRNA | 1.97
TMEM107 mRNA | -1.13
UBTF mRNA | -1.6
TIMP1 mRNA | 1.56
TRIM14 mRNA | -0.95
MKI67 mRNA | -2.14
MFAP3L mRNA | 1.81
CHIC2 mRNA | 1.09
TGFBR3 mRNA | -1.92
TBX2 mRNA | -1.21
SDE2 mRNA | 0.938
MIDN mRNA | -1.15
PTGFRN mRNA | -1.37
RNASEH2A mRNA | -1.58
NEIL3 mRNA | -1.88
ARHGAP29 mRNA | -1.51

Series 4
SMILES: C[C@@H]1CN(c2ccc(-c3cc(C(=O)NCCOCCOCCOCCOCCNC(=O)Cn4cc(-c5[nH]cc(C(=O)N[C@@H](CC(N)=O)c6ccc(F)c(Cl)c6)c5-c5ccc(Cl)cc5F)cn4)ccc3F)cc2NC(=O)c2c[nH]c(=O)cc2C(F)(F)F)C[C@H](C)N1C
Effect on: thermal unfolding
Method: differential scanning fluorimetry
Concentration: 5.5 µM
Reading: higher = more unfolded
WDR5: WD repeat-containing protein 5 (WDR5, Homo sapiens, UniProt P61964)
DCAF1: DDB1- and CUL4-associated factor 1 (DCAF1, Homo sapiens, UniProt Q9Y4B6)
Sequence of UniProt Q9Y4B6 (whole entry, looked up): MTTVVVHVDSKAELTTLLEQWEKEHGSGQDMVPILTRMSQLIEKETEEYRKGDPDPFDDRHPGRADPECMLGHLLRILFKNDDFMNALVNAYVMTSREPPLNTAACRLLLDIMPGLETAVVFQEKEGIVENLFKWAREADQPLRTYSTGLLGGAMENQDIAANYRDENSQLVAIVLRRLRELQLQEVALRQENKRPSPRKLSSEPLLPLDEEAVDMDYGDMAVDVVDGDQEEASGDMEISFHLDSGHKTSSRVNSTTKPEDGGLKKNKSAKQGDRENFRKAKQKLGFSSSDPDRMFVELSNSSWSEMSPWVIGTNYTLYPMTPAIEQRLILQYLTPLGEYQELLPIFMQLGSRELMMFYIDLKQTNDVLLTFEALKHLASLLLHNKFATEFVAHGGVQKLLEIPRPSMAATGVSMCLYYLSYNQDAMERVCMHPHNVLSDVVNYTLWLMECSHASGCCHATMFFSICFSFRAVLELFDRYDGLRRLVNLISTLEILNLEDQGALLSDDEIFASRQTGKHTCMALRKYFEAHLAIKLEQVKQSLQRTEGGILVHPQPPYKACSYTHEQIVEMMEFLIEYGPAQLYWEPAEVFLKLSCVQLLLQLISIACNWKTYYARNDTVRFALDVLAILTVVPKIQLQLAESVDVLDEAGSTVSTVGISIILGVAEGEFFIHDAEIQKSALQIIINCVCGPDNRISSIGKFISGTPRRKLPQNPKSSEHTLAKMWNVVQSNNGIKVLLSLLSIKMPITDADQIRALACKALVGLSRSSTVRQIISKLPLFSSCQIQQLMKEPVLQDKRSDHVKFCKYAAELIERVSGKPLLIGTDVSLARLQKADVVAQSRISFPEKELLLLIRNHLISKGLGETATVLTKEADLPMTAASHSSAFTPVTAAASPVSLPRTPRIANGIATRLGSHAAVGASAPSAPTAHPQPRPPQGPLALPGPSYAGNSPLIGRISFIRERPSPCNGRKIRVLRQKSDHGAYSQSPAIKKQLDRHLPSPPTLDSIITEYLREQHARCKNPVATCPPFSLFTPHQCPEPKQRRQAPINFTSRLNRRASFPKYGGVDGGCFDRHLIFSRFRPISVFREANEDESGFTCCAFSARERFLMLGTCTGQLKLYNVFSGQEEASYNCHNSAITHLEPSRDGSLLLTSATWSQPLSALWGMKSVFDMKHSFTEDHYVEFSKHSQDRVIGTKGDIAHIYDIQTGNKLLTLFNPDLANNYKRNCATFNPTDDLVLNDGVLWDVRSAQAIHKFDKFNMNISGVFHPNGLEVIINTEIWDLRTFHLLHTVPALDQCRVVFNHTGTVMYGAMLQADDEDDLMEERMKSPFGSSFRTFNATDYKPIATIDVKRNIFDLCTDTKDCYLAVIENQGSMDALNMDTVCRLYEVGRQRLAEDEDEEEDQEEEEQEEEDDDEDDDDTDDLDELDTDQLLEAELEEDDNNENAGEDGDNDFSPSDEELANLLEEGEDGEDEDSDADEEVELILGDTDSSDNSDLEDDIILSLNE
target | temperature | SYPRO Orange fluorescence
WDR5 | 54.61 °C | 13800 a.u.
WDR5 | 91.41 °C | 42000 a.u.
WDR5 | 74.61 °C | 10400 a.u.
DCAF1 | 63.21 °C | 52100 a.u.
DCAF1 | 52.81 °C | 16400 a.u.
DCAF1 | 61.21 °C | 44100 a.u.
WDR5 | 77.41 °C | 15700 a.u.
WDR5 | 50.6 °C | 14400 a.u.
WDR5 | 54.41 °C | 13900 a.u.
WDR5 | 82.01 °C | 29900 a.u.
DCAF1 | 83.01 °C | 41700 a.u.

Series 5
SMILES: Cc1ncsc1-c1ccc(C(CO)NC(=O)C2CC(O)CN2C(=O)C(C(C)C)n2cc(-c3ccc(COc4c(-c5c(C)c(F)cc6[nH]ncc56)c(C5CC5)cc5c(N6CC7CC6CN7)nc(OC6CCOCC6)nc45)cc3)nn2)cc1 (stereo not drawn)
Effect on: cell growth or viability
Method: ATP luminescence
Time: 6 days
cell line | concentration | viability
T24 | 10 µM | 72.4% and 39.3% and 55.9% and 58.2%
NCI-H1299 | 1 nM | 120% and 108% and 136% and 112%
A-375 | 1 nM | 90.3% and 88.3% and 99.1% and 87.9%
HPAC | 1 µM | 1.16% and 1.24% and 1.44% and 3.23%
COLO 320 | 0.3 µM | 94.9% and 104% and 84.1% and 101%

Series 6
SMILES: Cc1nc(C)c(C=[N+]([O-])C(C)(C)C)nc1C
Method: Western blot
Notes: unit not given
Reference: β-actin
tested on | test | system | setting | protein level
primary rat midbrain neurons | item: MEF2D | – | 100 µM, with: MPP+ | 122 and 125 and 107
– | item: tyrosine hydroxylase | MPTP mouse model, substantia nigra | 10 mg/kg | 86.8 and 89.4 and 77 and 107
primary rat midbrain neurons | item: SIRT1 | – | 100 µM, with: MPP+ | 163 and 95.6 and 169

Series 7
SMILES: COCCCCCCC1CC2C(CCC3(C)C(O)CCC23)c2ccc(O)cc21 (stereo not drawn)
cell line | method | item | concentration | reference | mRNA level ratio
PANC-1 | DNA microarray | CCL22 | 50 µM | untreated cells | 1
SK-OV-3 | microarray | ISG20L1 | 10 µM | untreated | 2.13
PANC-1 | microarray | ACTA2 | 10 µM | untreated | 0.811
PANC-1 | DNA microarray | ACTB | 50 µM | untreated cells | 1.18
SK-OV-3 | DNA microarray | CCL22 | 10 µM | untreated cells | 1
A549 | microarray | ACTA2 | 10 µM | untreated | 1.15
A549 | microarray | CCL8 | 10 µM | untreated | 38.7
PANC-1 | microarray | ACTA2 | 50 µM | untreated | 0.779
A549 | microarray | ADAMTS14 | 10 µM | untreated | 1.03
SK-OV-3 | DNA microarray | CCL22 | 50 µM | untreated cells | 1

Series 8
Structure (SMILES): CC[C@@]1(c2cccc(-c3c(F)cncc3OC)c2)C2=C(Nc3n[nH]cc31)[C@H](F)C(C)(C)CC2=O (single isomer, unassigned)
Concentration: 1 µM
target | effect on | method | reference | remaining binding [%]
Serine/threonine-protein kinase TAO3 (TAOK3, Homo sapiens, UniProt Q9H2K8) | kinase binding | KINOMEscan | DMSO control | 71
Interleukin-1 receptor-associated kinase 3 (IRAK3, Homo sapiens, UniProt Q9Y616) | binding | competition with immobilised ligand | – | 73
Muscle, skeletal receptor tyrosine-protein kinase (MUSK, Homo sapiens, UniProt O15146) | binding | competition with immobilised ligand | – | 93
Receptor-type tyrosine-protein kinase FLT3 (FLT3, Homo sapiens, UniProt P36888, R834Q) | binding | competition with immobilised ligand | – | 89
RAF proto-oncogene serine/threonine-protein kinase (RAF1, Homo sapiens, UniProt P04049) | binding | competition with immobilised ligand | – | 89
Serine/threonine-protein kinase TBK1 (TBK1, Homo sapiens, UniProt Q9UHD2) | binding | competition with immobilised ligand | – | 90
Mast/stem cell growth factor receptor Kit (KIT, Homo sapiens, UniProt P10721) | binding | competition with immobilised ligand | – | 100
cGMP-dependent protein kinase 1 (PRKG1, Homo sapiens, UniProt Q13976) | kinase binding | KINOMEscan | DMSO control | 88
Dual specificity mitogen-activated protein kinase kinase 2 (MAP2K2, Homo sapiens, UniProt P36507) | binding | competition with immobilised ligand | – | 83
BDNF/NT-3 growth factors receptor (NTRK2, Homo sapiens, UniProt Q16620) | kinase binding | KINOMEscan | DMSO control | 74
Serine/threonine-protein kinase ICK (CILK1, Homo sapiens, UniProt Q9UPZ9) | binding | competition with immobilised ligand | – | 15

Series 9
SMILES: COc1cc(-c2nc3ccc(C(=O)NCCCN4CCN(c5cccc(C)c5C)CC4)cc3n2C2CCC2)cc(OC)c1OC
Effect on: binding
Method: competition with immobilised ligand
Concentration: 1 µM
target | remaining binding [%]
Tyrosine-protein kinase Fer (FER, Homo sapiens, UniProt P16591) | 96
Serine/threonine-protein kinase Sgk2 (SGK2, Homo sapiens, UniProt Q9HBY8) | 92
Myotonin-protein kinase (DMPK, Homo sapiens, UniProt Q09013) | 100
Mast/stem cell growth factor receptor Kit (KIT, Homo sapiens, UniProt P10721) | 100
1-phosphatidylinositol 3-phosphate 5-kinase (PIKFYVE, Homo sapiens, UniProt Q9Y2I7) | 92
Cyclin-dependent kinase 4, with cyclin D3 (CDK4, Homo sapiens, UniProt P11802) | 100
Mast/stem cell growth factor receptor Kit (KIT, Homo sapiens, UniProt P10721, D816H) | 71
Serine/threonine-protein kinase 17A (STK17A, Homo sapiens, UniProt Q9UEE5) | 100
Phosphatidylinositol 4,5-bisphosphate 3-kinase catalytic subunit beta isoform (PIK3CB, Homo sapiens, UniProt P42338) | 94
Epidermal growth factor receptor (EGFR, Homo sapiens, UniProt P00533) | 86
Cyclin-dependent kinase 14 (CDK14, Homo sapiens, UniProt O94921) | 94
Macrophage colony-stimulating factor 1 receptor (CSF1R, Homo sapiens, UniProt P07333) | 96
Receptor-type tyrosine-protein kinase FLT3 (FLT3, Homo sapiens, UniProt P36888, D835V) | 79
Myosin-IIIa (MYO3A, Homo sapiens, UniProt Q8NEV4) | 95
MAP/microtubule affinity-regulating kinase 4 (MARK4, Homo sapiens, UniProt Q96L34) | 83
Tyrosine-protein kinase ABL1, non-phosphorylated (ABL1, Homo sapiens, UniProt P00519, F317L) | 67
Mitogen-activated protein kinase kinase kinase kinase 5 (MAP4K5, Homo sapiens, UniProt Q9Y4K4) | 93

Series 10
Structure (SMILES): CS(=O)(=O)c1ccc(OC/C(=C/F)CN)cc1.Cl
MAOA: Amine oxidase [flavin-containing] A (MAOA, Homo sapiens, UniProt P21397)
Sequence of UniProt P21397 (whole entry, looked up): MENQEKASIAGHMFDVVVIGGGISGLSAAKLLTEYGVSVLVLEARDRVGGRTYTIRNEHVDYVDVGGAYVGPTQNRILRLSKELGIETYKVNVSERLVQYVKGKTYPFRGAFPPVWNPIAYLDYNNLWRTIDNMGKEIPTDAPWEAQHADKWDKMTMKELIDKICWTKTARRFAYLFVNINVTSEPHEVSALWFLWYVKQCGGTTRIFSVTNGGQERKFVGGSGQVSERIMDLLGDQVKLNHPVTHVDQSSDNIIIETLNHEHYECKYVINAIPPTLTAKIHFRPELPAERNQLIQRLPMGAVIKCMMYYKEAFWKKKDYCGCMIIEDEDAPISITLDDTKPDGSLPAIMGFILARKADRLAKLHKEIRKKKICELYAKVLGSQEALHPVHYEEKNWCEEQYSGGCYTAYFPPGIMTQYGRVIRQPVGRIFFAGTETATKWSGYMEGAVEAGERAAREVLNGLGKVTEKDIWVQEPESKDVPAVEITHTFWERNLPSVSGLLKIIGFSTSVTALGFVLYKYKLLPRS
MAOB: Amine oxidase [flavin-containing] B (MAOB, Homo sapiens, UniProt P27338)
Sequence of UniProt P27338 (whole entry, looked up): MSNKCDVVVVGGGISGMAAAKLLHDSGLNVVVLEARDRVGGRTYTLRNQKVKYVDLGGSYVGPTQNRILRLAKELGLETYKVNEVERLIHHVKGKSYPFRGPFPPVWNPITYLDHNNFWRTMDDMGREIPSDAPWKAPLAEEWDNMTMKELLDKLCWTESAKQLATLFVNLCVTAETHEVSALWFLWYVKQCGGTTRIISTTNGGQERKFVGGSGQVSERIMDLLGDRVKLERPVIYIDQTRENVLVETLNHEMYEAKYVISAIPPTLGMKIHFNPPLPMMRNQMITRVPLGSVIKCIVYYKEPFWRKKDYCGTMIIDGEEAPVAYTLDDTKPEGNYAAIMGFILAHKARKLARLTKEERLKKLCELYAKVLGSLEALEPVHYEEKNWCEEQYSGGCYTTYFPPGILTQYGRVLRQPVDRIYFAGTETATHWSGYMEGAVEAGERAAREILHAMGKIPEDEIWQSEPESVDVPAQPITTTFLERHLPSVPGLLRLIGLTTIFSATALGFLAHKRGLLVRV
target | effect on | mode | medium | concentration | inhibition
MAOA | enzyme activity | inhibitor | – | 1.5 nM | -3.01% and -1.67% and 2.41% and -4.62% and 3.67%
MAOB | enzyme activity | inhibitor | – | 200 pM | 4.24% and -0.299%
MAOB | enzyme activity | inhibitor | – | 3.333 µM | 6.89% and -0.714%
Amine oxidase [copper-containing] 3 (Rattus norvegicus, UniProt O08590) | – | – | rat adipose tissue | 1 µM | 100%
Amine oxidase [copper-containing] 3 (Mus musculus, UniProt O70423) | – | – | mouse adipose tissue | 5.081e-05 µM | 5.09%
Amine oxidase [copper-containing] 3 (Rattus norvegicus, UniProt O08590) | – | – | rat adipose tissue | 0.0005 µM | 9.97%
MAOB | enzyme activity | inhibitor | – | 41.2 nM | -1.63% and 0.29% and 7.73%
MAOA | enzyme activity | inhibitor | – | 13.7 nM | 0.276% and 7.8% and 4.69% and 0.464% and -1.19%

Mixed results
Compound | tested on | test | system | setting | how to read | quantity | value
Cc1ccc(O)c(C)c1-c1cnc2[nH]c(-c3cnc(N)nc3)cc2c1C#N | ABL1 phosphorylated human | KINOMEscan | – | 1000 nM | reference: control | binding remaining | 34%
FC(F)(F)c1ccc(C2=NOC3(NC(c4ccccc4)=NO3)N2c2ccccc2)cc1 (stereo not drawn) | HepG2 | cell growth or viability, ATP luminescence | – | 10 µM, 72 h | – | viability | > 75%
Cc1ccc(O)c(C)c1-c1cnc2[nH]c(-c3cnc(N4CCC(CN5CCN(c6ccc(NC7CCC(=O)NC7=O)cc6F)CC5)CC4)nc3)cc2c1C#N (stereo not drawn) | – | – | CD-1 mouse | intravenous, dose not given, 24 h | – | plasma concentration | not detected
Cc1ccc(O)c(C)c1-c1cnc2[nH]c(-c3cnc(N4CCC(CN5CCN(c6ccc7c(c6)C(=O)N(C6CCC(=O)NC6=O)C7=O)CC5)CC4)nc3)cc2c1C#N (stereo not drawn) | Protein cereblon (CRBN, Homo sapiens, UniProt Q96SW2) | binding | – | – | – | IC50 | 370 nM
Cc1ccc(O)c(C)c1-c1cnc2[nH]c(-c3cnc(N4CCC(CN5CCN(c6cc7c(cc6F)c(N6CCC(=O)NC6=O)nn7C)CC5)CC4)nc3)cc2c1C#N | – | – | female CD-1 mouse, plasma | oral, 20 mg/kg | – | bioavailability | 71.8%

Some of these lines once more (series 1):
Compound | root length [cm]
CC(C)=CCN1C(=O)C(O)(C(=O)O)Oc2cc(F)ccc21 (stereo not drawn) | 1.07
CN1C(=O)C(O)(C(=O)O)Oc2cc(F)ccc21 (stereo not drawn) | 0.838
O=C(O)C1(O)Oc2cc(Br)ccc2N(Cc2ccccc2)C1=O (stereo not drawn) | 0.761
